# Measurements pooled from the literature.
# Each numbered part is a random draw from the data of one study; scales do not carry over between parts. Positions count from the first letter of the parent shown.

# Series 1
# Target: CCND2, cyclin fold, Cln2 fusion (human)
# Method: yeast growth competition, sequencing
# Sample: yeast
# Setting: weak parent motif
# Reference: not given
# Reading: higher = stronger binding
# Parent: USP37 docking peptide (human); PSAKRSLGFLPQP; partner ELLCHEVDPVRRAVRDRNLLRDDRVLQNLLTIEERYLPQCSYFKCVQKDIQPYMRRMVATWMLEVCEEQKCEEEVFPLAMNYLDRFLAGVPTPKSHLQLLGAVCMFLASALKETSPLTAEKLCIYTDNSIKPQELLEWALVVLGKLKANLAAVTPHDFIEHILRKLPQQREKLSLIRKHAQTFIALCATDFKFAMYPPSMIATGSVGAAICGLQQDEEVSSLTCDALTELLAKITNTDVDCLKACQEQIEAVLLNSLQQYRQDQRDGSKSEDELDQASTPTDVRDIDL
Variant,normalised enrichment score
ASAKRSLGFLPQP [P1A],-0.11
PSAKRSLGFLPQA [P13A],-0.0762
PSAKRSLGFLAQP [P11A],-0.0494
PSAKRSLGFAPQP [L10A],0.0697
PSAKRALGFLPQP [S6A],0.407
PSAKRSLGFLPAP [Q12A],0.203

# Series 2
# Target: Histone acetyltransferase KAT6A, winged helix 2, GST fusion (KAT6A, Homo sapiens, UniProt Q92794, residues 85-181)
# Method: protein binding microarray
# Form: double-stranded DNA, one strand shown
# Sample: in vitro
# Concentration: not given
# Setting: 8-mer, flanks averaged, mean of 2 arrays, mostly near background
# Reference: not given
# Reading: higher = stronger binding
# Target sequence (chain): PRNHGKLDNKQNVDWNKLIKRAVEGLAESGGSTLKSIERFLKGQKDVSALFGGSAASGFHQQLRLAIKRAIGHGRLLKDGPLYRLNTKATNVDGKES
Strand,E-score
ACATGCTG,-0.0777
CTCACACC,-0.0708
ACACATCC,0.0579
CACGTAAC,-0.241
AAGATCTG,0.00726
ACTAAAGT,-0.0352
GCCGGCCA,0.175
CACACCGG,0.0983
ATATAGGA,-0.0439
ACCGTATC,0.111
ATTGCGCG,0.124
CCAGCCTC,-0.0994
CGGTCTAC,0.051
GTACGCGA,-0.181
ATAGGGTG,-0.206
TCGCCCCA,0.00365
GGCTTGGA,-0.233

# Series 3
# Target: RING finger protein unkempt homolog, zinc fingers 1-6, GST-SBP tag (UNK, Homo sapiens, UniProt Q9C0B0, residues 30-357)
# Method: RNA Bind-n-Seq
# Form: RNA
# Sample: in vitro
# Concentration: not given
# Setting: RNA with constant flanks, ends assumed
# Reference: input RNA pool
# Reading: higher = stronger binding
# Shared flanks, not repeated: GGGAGUUCUACAGUCCGACGAUC … CAACAGAGGAUUGAGCAUCA
# Construct (chain): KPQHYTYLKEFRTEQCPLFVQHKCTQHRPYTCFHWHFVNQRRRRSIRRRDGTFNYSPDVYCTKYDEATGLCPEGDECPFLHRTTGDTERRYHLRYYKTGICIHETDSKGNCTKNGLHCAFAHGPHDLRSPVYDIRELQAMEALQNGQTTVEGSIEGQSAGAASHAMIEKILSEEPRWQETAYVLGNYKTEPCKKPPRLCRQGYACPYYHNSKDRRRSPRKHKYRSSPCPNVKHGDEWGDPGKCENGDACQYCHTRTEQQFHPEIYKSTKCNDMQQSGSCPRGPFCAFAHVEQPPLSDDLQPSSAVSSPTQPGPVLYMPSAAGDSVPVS
Strand,bound/input enrichment [ratio]
AGGCUCGAGGGCGGUGAGCAGUGACAAUUGCUAGGCGGAGACAGUGCAGGGAAGAGAGACCUCCGAAAGGAUCAGGACUGGCGGGAGGUAUUUAACUGAAAGGAAUAUCUGCUUCACUGU,0.226
UUUGGUGGUCAAAGUAAAUGGGUGUAGGAUGCUACCAGCCUCAGGAGAGGCUUCACCAUGUUCCGCACCGUUGUCUUCACAAGAAAGAAUUACCCAGUCCAAGAUGUCAUUAGUGCCAAG,0.229
AUGCUGACUGGUAAAACCCUUUUUGCAGGUGCACAUGAACUUGAACAGAUGCAGCUGAUUUCCGAAUCUAUUCCUGUUGUACAUGAGGAAGAUCGUCAGGAGCUUCUCAGCGUAAUUCCA,0.063
CCUUGUUCACUGGAUUGUCUGGGGUGACUUGGGCUCAUAUCCACAAUAUUUGGUAUACGGCCGCCGGUUGGUGGGGGUGGGGGUGGGGAGCUAGGAUAUAGGGCAGGGAUACAUACAGUU,13.9
CAGAUGCUUGUGACCACACCAGAAAAAUGGGAUGUAGUGACAAGAAAGAGUGUUGGGGAUGCCGCUCUUUCCCAGAUUGUAAGGCUCCUUAUUCUUGAUGAAGUUCAUUUGCUGCAUGAA,0.205
UGGUGGGGACUGAGUUCCCUGUUCAAACCGUUAUUGGGUACAGGAUUGAAUGUUUGAUUUCCGGUUUUAUUUUUCUUAUGAAUGUCCAGAUCUGUGUUUCCCUGCCCUCCCAGACUCUGG,0.318
CCAUUGUACCCUGCUGUAUAAUAAACAAUCUUAGACAUUUAUCAACUGUUGAUACAAAUGUCCGUCCCUAACCACUUUUUAUAUAUGUUUUAAAUUUUUGAAAUUCAAGUGUACCUGCCA,11.5
CUGAGCCCAGGGUCCCAAAUCAACGUGCUGGAAGACCCAGGCUACCUAGAUCUCACACAAACCGAAGCAAGCAAACCUCACAGUGCCCAGUUUUUGCUACCAGUUGAGAUGUUUGGUCCU,0.334

# Series 4
# Target: Interferon regulatory factor 7, full length, phosphomimetic (IRF7, Homo sapiens, UniProt Q92985, residues 1-503, S101K/S471D/S472D/S475D/S476D/S477D/S483D/S484D/S487D)
# Method: protein-binding microarray
# Form: double-stranded DNA, one strand shown
# Sample: in vitro
# Concentration: 250 nM
# Setting: 60-bp whole probe
# With: salmon DNA 0.4 mg/ml
# Reference: random background probes
# Reading: higher = stronger binding
# Shared flanks, not repeated: GCCTAGCAC … GTCTTGATTCGCTTGACGCTGCTG
# Residues (chain): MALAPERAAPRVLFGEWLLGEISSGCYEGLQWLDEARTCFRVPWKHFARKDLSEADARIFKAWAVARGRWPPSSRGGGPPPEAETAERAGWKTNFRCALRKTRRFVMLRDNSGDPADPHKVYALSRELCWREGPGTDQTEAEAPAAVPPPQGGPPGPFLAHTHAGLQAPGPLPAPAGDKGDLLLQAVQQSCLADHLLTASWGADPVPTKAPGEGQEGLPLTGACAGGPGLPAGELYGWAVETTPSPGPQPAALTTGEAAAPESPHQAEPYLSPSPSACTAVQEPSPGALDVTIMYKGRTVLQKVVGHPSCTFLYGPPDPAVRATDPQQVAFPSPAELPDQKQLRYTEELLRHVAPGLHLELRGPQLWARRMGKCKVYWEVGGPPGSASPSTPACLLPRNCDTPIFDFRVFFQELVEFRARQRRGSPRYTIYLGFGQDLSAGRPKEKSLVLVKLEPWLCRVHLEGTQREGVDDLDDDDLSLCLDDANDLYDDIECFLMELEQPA
Strand,log fluorescence [z-score]
GACGGTTTCGGGTTTCTGGACGTGCTA,11.1
GACGATATCGAGTTTCGAGACGTGCTA,3.18
TTAGATATCAGGCTCGATTAGTGCTAG,0.634
TTAGGTTTCGACTATCGGCTAGTGCTA,5.09
TTTACTTTCTATCTCTGTTTGTGCTAG,2.71
GACGGACTGGGGTTTCTGGACGTGCTA,-0.809
TTAGATATCAGTTTCGATTAGTGCTAG,8.51
GACGGTTTCGACTTTCGGTACGTGCTA,11.4
GACGCTATCGGTCTCGGGACGTGCTAG,0.261
TCAAGCTTCCATTTTCTACTGTGCTAG,0.527
TCAATTCCCTTTCTCAAACTGTGCTAG,2.72
GACGGACTGCTTATCCAGACGTGCTAG,-0.54

# Series 5
# Target: Ras GTPase-activating protein-binding protein 1, full length (G3BP1, Homo sapiens, UniProt Q13283)
# Sequence of UniProt Q13283 (whole entry, looked up): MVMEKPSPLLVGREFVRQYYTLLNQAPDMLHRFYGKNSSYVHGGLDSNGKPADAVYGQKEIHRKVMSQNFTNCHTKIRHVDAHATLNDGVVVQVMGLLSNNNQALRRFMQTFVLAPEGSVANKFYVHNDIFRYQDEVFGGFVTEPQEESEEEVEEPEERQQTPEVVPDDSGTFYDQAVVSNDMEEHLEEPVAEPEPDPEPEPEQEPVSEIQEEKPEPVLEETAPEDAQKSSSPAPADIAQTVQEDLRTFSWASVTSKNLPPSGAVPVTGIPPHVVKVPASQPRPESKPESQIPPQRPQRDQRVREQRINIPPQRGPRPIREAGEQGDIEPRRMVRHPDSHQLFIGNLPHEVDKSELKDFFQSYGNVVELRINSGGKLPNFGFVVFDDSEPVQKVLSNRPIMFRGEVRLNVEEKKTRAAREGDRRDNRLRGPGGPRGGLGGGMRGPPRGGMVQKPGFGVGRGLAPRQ
# Method: RNA Bind-n-Seq
# Form: RNA
# Sample: in vitro
# Concentration: 200 nM
# Setting: whole 134-nt RNA, ends assumed
# With: 150 mM LiCl
# Reference: input library
# Reading: higher = stronger binding
# Library: 7-deaza-guanosine replaces G
# Shared flanks, not repeated: GGGAGUUCUACAGUCCGACGAUC … UGGAAUUCUCGGGUGUCAAGG
Strand,log2 enrichment
AAGUCCUGUGCUACACAUCGUAUGUACCGAAUCGGGUUUUUUUGGGAAAGGGUGGGAAAGUAUUAUGUUACGCCGUUCGGAUCUGCACUU,-0.89
UCAAGUCCUGUGCUACACAUCGUAUGUACCGAAUCGGGUGGGUGGGAAAAAGGGAAAGUAUUAUGUUACGCCGUUCGGAUCUGCACUUCC,-0.544
AGUCCUGUGCUACACAUCGUAUGUACCGAAUCGGGAAAAAGGGAAAAAGGGUUUGGGAAAGUAUUAUGUUACGCCGUUCGGAUCUGCACU,-2.36
UCCUGUGCUACACAUCGUAUGUACCGAAUCGGGGAGGGGAAAAAAAGGGGAAAAAGGGGAAAGUAUUAUGUUACGCCGUUCGGAUCUGCA,0.429
CCUCAAGUCCUGUGCUACACAUCGUAUGUACCGAAUCGGGAAGGAAGGGAAGGAAAGUAUUAUGUUACGCCGUUCGGAUCUGCACUUCCA,-0.331
CUCAAGUCCUGUGCUACACAUCGUAUGUACCGAAUCGGGAAAGGGUGGGUGGGAAAGUAUUAUGUUACGCCGUUCGGAUCUGCACUUCCA,0.151
UGGCCCUGGUGGCAUGCGGGGAGGAAGAGGUGGCCUCAUGGUUCGUGGUGGUCCCGGUGGAAUGUUCAGAGGUGGCCGUGGUGGAGACAG,0.0253
CCUCAGUGUCAUUUAUGAAAAGAGGGGACCAGAAGCCAAAGACUUAGUAUAUUUUCUUUUCCUCUGUCCCUUCCCCCAUAAGCCUCCAUU,0.564

# Series 6
# Target: RNA binding protein fox-1 homolog 2, RRM domain, GST-SBP tag (RBFOX2, Homo sapiens, UniProt O43251-10, residues 100-194)
# Method: RNA Bind-n-Seq
# Form: RNA
# Sample: in vitro
# Concentration: 365 nM
# Setting: natural RNA segment, single round, ends assumed
# Reference: no-protein control
# Reading: higher = stronger binding
# Shared flanks, not repeated: GGGAGUUCUACAGUCCGACGAUC … UGGAAUUCUCGGGUGCCAA
# Residues (chain): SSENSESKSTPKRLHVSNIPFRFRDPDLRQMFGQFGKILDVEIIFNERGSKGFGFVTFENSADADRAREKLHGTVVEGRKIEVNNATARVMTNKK
Strand,RBNS enrichment (R)
CCCUGUGGGGCUCAAUGUGGUGUCGCCUCUCUGGGCUGAGUGACUUGAUUUGACCAGCAUGCACUCAGAUUAGCUGCUCGACAGAGGUGUCCCCUUUUCAAUGAACCAUC,5.46
UCCCAGAUGAUGACAAUGAAAUUAGUGCCUGUUUUCUUGCAAAUUUAGCACUGGGGACACUUAAAGUCUCUGCUGUCUAUGGAGUUGAUUUGGAAAUACCUUCCUGGCCC,0.685
AACCUUGCAUUCCAUCAAGCCAAAAUAGCACACUCUGUUAGAGGAGAUACAUGUUUAAGAUAGAAUUGGAGGGAAGGACAAAAACAGAAAAAUGUUUGGGCUUUUAAGCC,0.396
GCCUCGCCUUGUGUUACGAUAUUUCGUUUGGUCUUAGGUCUUCCUGUGGCUCCCUCUCUCCUGGACUGGUUAUCUUGUUAUUAUUGUUAAUAAUAAUUAUUAUUAUUAUU,1.06
GUACCAGUAGCCUCCCGUCCUAAUUCUGUUCAAUAUCAGUUGUUCCUAAUAAGUAGAAUACACUACUGUCAACACCUGACCUUCGUUUUUGUCUUGUGUUGGGGUUAGAG,0.548
CAGUGAUCAUCUUGUUCAUCUUGUUCAGUCCUUUCUUGUGUGAUUGGAAUUAUUCAUCCCCUUUGAAAGAUGAGAAGGUUGAGAUGCAAAGAGUCUACCUUUCCAAGUUC,0.436
GCUGAGCUUAUUCUUAGGGUAUGACCUGGCAUUAUUUCCAGUGACUAGUCAGGCAUUAUGCCUGAUGCAUACGCCUCCCGUGCACCCCUAUCUAGCCUUCAGAUGUCCUC,0.195
CCAACCCAUGAACUCUUCACUCCUUGGGGAAGCCACCUCCCAUCACACCCCUGAGCAGAGUUAGGGAGGAAUUCUACUUCCCAUAAAAGGACCUCUCCUGAGAGGCAAAA,0.344
GAGCUACUCUGGUUGGUAAUACUCUGUGCACACAUCAUUGUAGCCACACAUCAUUGCUGGGAGAAUUAAGCAUUAUCCUGAAGACUCUGCCAGGAGAGGAUAAUUGGAAG,0.511
UCUCAGCCAAAGAGGGAAAGGAAAGGGUCGCUCUUGACUGCUGAGAGCAUAGCUAAUGUACCUGGAAUCUGAGCAGCCCUGGUCUCAGCAGAGCCUGAAAUUAAACUCAU,0.434
CCCAGGACCUGAUGUCAGCAGCCUGAGGAUAACAACCCUGUCAGUGAAACGGAAUCUCCACCCCAGACGUAUGAGCAUACAGCAAGACCACAGUUUCCUGGGGAGGCCUG,0.709
AUAUGAGCCUAGGGUUUCCCCAACACGUGCGUGCAUAUGAAACCACAUCAUGAUUCCCGACGUGAGUUAGAUGAGGGAGAGUUUGUGUAACUCCACACCCAGGAGGGUAA,0.231
